Results pooled from the literature.
Sequence of UniProt P06213 (whole entry, looked up): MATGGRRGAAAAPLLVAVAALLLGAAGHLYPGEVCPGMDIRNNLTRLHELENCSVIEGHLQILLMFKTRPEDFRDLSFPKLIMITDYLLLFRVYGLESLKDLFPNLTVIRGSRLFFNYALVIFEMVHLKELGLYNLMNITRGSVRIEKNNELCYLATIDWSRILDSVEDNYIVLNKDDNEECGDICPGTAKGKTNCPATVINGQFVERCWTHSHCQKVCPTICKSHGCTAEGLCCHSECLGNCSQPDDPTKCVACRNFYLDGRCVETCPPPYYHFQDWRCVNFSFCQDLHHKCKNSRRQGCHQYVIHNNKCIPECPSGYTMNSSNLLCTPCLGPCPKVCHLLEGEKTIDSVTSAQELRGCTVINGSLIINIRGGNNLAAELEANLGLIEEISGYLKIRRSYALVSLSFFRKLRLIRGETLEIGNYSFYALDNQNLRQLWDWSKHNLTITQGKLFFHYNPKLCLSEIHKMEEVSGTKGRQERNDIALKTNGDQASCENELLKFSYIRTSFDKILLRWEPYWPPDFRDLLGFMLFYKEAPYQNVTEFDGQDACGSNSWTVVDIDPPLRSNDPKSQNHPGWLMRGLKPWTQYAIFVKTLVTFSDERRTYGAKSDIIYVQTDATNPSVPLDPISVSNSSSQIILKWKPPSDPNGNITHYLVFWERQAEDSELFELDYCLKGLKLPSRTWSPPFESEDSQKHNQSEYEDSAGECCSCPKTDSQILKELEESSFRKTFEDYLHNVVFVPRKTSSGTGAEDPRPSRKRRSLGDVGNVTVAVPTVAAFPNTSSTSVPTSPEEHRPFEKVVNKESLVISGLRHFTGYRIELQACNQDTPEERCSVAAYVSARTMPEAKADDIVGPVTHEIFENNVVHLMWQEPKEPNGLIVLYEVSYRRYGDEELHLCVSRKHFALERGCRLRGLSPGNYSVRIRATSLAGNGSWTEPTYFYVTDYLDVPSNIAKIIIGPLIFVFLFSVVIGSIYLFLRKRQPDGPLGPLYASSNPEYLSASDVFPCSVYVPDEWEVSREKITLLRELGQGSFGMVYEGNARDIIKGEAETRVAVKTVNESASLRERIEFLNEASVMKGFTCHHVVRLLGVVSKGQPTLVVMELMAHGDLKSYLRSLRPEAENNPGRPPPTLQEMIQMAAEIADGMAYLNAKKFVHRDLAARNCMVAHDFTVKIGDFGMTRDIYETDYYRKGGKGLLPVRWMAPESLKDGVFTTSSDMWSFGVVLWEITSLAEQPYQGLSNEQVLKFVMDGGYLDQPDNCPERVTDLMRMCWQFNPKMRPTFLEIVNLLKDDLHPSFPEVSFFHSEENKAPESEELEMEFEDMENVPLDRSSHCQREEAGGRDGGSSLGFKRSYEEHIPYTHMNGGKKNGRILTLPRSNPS
Sequence of UniProt P49759 (whole entry, looked up): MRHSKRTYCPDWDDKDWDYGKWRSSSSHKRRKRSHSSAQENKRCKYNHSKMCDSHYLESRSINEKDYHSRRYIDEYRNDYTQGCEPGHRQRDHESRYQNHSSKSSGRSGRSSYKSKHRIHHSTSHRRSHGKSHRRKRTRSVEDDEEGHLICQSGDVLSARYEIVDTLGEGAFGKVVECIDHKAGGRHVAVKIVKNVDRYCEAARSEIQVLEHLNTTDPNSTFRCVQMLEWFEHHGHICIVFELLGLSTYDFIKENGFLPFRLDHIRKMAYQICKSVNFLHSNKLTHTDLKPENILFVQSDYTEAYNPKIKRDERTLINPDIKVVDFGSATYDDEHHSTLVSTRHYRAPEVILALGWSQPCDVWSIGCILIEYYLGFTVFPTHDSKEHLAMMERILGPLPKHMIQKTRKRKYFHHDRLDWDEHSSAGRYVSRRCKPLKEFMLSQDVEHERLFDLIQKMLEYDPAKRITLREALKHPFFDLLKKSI
Sequence of UniProt P00519 (whole entry, unmodified, looked up): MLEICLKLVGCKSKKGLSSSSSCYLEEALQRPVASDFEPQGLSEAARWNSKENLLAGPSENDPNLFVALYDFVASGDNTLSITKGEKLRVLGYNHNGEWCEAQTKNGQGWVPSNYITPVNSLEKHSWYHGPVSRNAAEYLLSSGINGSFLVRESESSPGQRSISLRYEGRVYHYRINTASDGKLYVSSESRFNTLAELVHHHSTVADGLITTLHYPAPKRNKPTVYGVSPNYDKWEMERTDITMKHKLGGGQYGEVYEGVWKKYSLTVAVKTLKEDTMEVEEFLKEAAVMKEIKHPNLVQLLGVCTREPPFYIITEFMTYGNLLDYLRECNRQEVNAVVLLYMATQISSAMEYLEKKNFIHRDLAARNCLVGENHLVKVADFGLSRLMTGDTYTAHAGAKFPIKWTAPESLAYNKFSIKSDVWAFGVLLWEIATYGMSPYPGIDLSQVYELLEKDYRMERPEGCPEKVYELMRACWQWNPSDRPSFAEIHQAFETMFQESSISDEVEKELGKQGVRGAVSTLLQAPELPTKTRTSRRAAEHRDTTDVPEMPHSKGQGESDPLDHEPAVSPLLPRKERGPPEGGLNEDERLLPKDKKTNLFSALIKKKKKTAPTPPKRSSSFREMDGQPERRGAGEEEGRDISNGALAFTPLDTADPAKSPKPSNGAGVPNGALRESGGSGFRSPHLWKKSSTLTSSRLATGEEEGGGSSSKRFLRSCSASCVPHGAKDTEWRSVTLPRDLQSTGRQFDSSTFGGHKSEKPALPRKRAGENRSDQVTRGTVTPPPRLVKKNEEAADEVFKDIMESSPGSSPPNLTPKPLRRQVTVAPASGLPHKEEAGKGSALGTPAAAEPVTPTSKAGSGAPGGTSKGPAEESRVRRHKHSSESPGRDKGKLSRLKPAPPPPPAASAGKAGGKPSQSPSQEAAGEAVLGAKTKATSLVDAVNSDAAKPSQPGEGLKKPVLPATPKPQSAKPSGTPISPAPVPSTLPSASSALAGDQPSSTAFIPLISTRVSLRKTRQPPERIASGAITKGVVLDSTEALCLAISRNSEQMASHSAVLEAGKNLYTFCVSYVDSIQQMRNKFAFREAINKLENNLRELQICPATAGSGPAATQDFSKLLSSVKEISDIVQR
Sequence of UniProt Q07002 (whole entry, looked up): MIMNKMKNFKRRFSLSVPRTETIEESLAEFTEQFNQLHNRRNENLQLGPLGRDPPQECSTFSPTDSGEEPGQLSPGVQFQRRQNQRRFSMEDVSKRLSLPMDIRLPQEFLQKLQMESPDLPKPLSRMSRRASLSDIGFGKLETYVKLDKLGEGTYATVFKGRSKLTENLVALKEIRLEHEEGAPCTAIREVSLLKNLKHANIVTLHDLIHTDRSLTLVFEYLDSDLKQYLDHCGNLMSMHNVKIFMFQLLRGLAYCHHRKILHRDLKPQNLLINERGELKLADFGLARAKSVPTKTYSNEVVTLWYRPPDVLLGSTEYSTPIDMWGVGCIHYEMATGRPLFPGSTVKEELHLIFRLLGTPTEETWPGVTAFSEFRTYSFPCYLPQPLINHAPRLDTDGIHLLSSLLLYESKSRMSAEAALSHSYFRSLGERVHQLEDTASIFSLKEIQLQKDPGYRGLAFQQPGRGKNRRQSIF

| Structure (SMILES) | target or system | assay | system | conditions | quantity | result |
| --- | --- | --- | --- | --- | --- | --- |
| CC(=NNC(=O)c1cccnc1)c1ccc(Nc2nnc(-c3ccc(Cl)cc3)c3ccccc23)cc1 | MCF7 | cell growth or viability, MTT | – | 1.25 µM | cell death | 84.6% |
| Nc1ncnc2c1c(/C=C/C(=O)O)nn2CC1CCCC1 | FLO-1 | cell growth or viability, resazurin | – | 5 days | EC50 | > 30 µM |
| Cc1ccc(N(O)N=Nc2ccc(S(=O)(=O)Nc3onc(C)c3C)cc2)cc1 | – | ABTS scavenging | – | 60 µg/mL | inhibition | 49.9% |
| OCc1ccc(-c2cn(Cc3ccccc3)c3ccccc23)o1 | RBE | cell growth or viability, ATP luminescence | – | 46 µM, 72 h | inhibition | 85% |
| CC(=NNC(=O)c1ccccc1O)c1ccc(Nc2nnc(-c3ccc(Cl)cc3)c3ccccc23)cc1 | MCF7 | cell growth or viability, MTT | – | 0.312 µM | cell death | 0.708% |
| CN(Cc1ccc(C(C)(C)C)cc1)Cc1cccc2ccccc12 | Trichophyton rubrum | microbial growth, disc diffusion | ATCC28188 | 0.032 µg/mL, 6 days | inhibition zone | ≥ 55 mm |
| CNc1ncc2c(/C=C/C(=O)N3CCC(OC)CC3)nn(Cc3ccccc3OC)c2n1 | FLO-1 | cell growth or viability, resazurin | – | 5 days | EC50 | 6.91 µM |
| C=CC(=O)N1CCC(COCC(=O)N2CCN(c3nc(-c4cnc(N)nc4C(F)F)nc(N4CCOC[C@@H]4C)n3)CC2)CC1 | Dual specificity protein kinase CLK1 (CLK1, Homo sapiens, UniProt P49759) | binding, competition with immobilised ligand | – | 1 µM | remaining binding | 92% |
| Cc1ccc(C(CS(=O)(=O)c2ccccc2)=NNc2nc(C)c(N=Nc3cccc(C)c3)s2)cc1 | WM 266-4 | cell growth or viability, MTT | – | 25 µM, 48 h | viability | 40.3% |
| CCc1c(C)c2ccc(OCc3nnc(S)n3N)c(C)c2oc1=O | PC-3 | cell growth or viability, MTT | – | 62.5 µg/mL | viability | 38.8% |
| CC(=NNC(=O)c1ccccc1Br)c1ccc(Nc2nnc(-c3ccc(Cl)cc3)c3ccccc23)cc1 | MCF7 | cell growth or viability, MTT | – | 10 µM | cell death | 94.2% |
| CCNC(=S)NNC(=O)COc1ccc2c(C)c(CC)c(=O)oc2c1C | PC-3 | cell growth or viability, MTT | – | 62.5 µg/mL | viability | 93.2% |
| CCCCCCc1c(C)nc2cc(OC)ccc2c1O | HEK293 | cell growth or viability | – | – | IC50 | > 10 µM |
| CCCCC(=O)Nc1ccc(-c2ccc3ncn(CCC)c(=O)c3c2)cn1 | Tyrosine-protein kinase ABL1, phosphorylated (ABL1, Homo sapiens, UniProt P00519, T315I) | binding, competition with immobilised ligand | – | 0.5 µM | remaining binding | 86% |
| Cc1[nH]c(C)c(-c2ccc(C#Cc3ccc(F)cc3F)cc2)c(=O)c1Br | HEK293 | cell growth or viability | – | – | IC50 | > 10 µM |
| CCC(=CCc1c(O)cc2c(c1O)C(=O)C[C@H](c1ccccc1O)O2)CC | HeLa | cell growth or viability, MTT | – | 15 µM, 48 h | inhibition | 9.5% |

| Structure (SMILES) | target or system | assay | system | conditions | quantity | result |
| --- | --- | --- | --- | --- | --- | --- |
| C[C@@H]1CC[C@@H]([C@@](O)(CNCc2cccc3ccccc23)COCc2ccccc2)[C@H](OCc2ccccc2)C1 | A2780 | cell growth or viability, MTT | – | 10 µM, 72 h | inhibition | 97.1% |
| CN(Cc1ccc(C2(C(F)(F)F)CC2)cc1)Cc1cccc2ccccc12 | Trichophyton rubrum | microbial growth, disc diffusion | ATCC28188 | 0.016 µg/mL, 6 days | inhibition zone | 43.5 mm |
| O=C(Nc1ccccc1)Nc1ccc(Oc2nnc(-c3ccc(Cl)cc3)c3ccccc23)cc1 | MCF7 | cell growth or viability, MTT | – | 5 µM, 24 h | viability | 3.19% |
| C=C(COCc1ccc(F)cc1)[C@@H]1CC[C@@H](C)C[C@H]1OCc1ccc(F)cc1 | A2780 | cell growth or viability, MTT | – | 10 µM, 72 h | inhibition | 24% |
| CC(=NNC(=O)c1ccc(N)cc1)c1ccc(Nc2nnc(-c3ccc(Cl)cc3)c3ccccc23)cc1 | MCF7 | cell growth or viability, MTT | – | 1.25 µM, 24 h | viability | 14.1% |
| Cc1cc([C@@H](C)Nc2ccccc2C(=O)O)c2nc(N3CCC(F)(F)CC3)c(C#N)c(=O)n2c1 | Insulin receptor (INSR, Homo sapiens, UniProt P06213) | binding, competition with immobilised ligand | – | 10 µM | remaining binding | 100% |
| S=C(Nc1ccccc1)Nc1ccc(Oc2nnc(-c3ccc(Cl)cc3)c3ccccc23)cc1 | MCF7 | cell growth or viability, MTT | – | 0.312 µM | cell death | 0% |
| CNc1ncc2c(/C=C/C(=O)N3CCC(OC)CC3)nn(Cc3cccc(OC)c3)c2n1 | FLO-1 | cell growth or viability, resazurin | – | 5 days | EC50 | 4.63 µM |
| CCc1c(C)c2ccc(OCC(=O)NNC(=S)Nc3ccccc3)c(C)c2oc1=O | PC-3 | cell growth or viability, MTT | – | 62.5 µg/mL | viability | 17.9% |
| CC(=NNC(N)=S)c1ccc(Nc2nnc(-c3ccc(Cl)cc3)c3ccccc23)cc1 | MCF7 | cell growth or viability, MTT | – | 5 µM | cell death | 90.9% |
| Cc1cccc(N(O)N=Nc2ccc(S(=O)(=O)Nc3onc(C)c3C)cc2)c1 | – | ABTS scavenging | – | 60 µg/mL | inhibition | 30.5% |
| COc1cc(-c2cncc3c2CN(C)Cc2cc(N4CCNCC4)ccc2-3)cc(OC)c1OC | Cyclin-dependent kinase 18, with cyclin Y (CDK18, Homo sapiens, UniProt Q07002) | enzyme activity, inhibitor | – | 1 µM | remaining activity | 97% |
| O=C(Nc1ccc(OC2CCN(Cc3ccc(F)cc3)C2)c(Cl)c1)c1cccs1 (centres unmarked) | HEK293 | cell growth or viability | – | – | IC50 | > 10 µM |
| Cc1c(C(=O)Nc2ccc(N3C[C@@H](C)O[C@@H](C)C3)nc2)cccc1-c1ccc(OC(F)(F)F)cc1 | HD-MB03 | cell growth or viability | – | 7 days | IC50 | > 10 µM |
| CC(=NNC(=S)Nc1ccccc1)c1ccc(Nc2nnc(-c3ccc(Cl)cc3)c3ccccc23)cc1 | MCF7 | cell growth or viability, MTT | – | 1.25 µM | cell death | 72.5% |
| OCc1ccc(-c2nn(Cc3ccccc3)c3ccc(F)cc23)o1 | RBE | cell growth or viability, ATP luminescence | – | 46 µM, 72 h | inhibition | 72% |
